Published values from different studies.
Numbered parts are unrelated; each lists some results of a single study. Several values in a cell are separate wells, animals, samples, runs or records.
Sequence of UniProt O75716 (whole entry, looked up): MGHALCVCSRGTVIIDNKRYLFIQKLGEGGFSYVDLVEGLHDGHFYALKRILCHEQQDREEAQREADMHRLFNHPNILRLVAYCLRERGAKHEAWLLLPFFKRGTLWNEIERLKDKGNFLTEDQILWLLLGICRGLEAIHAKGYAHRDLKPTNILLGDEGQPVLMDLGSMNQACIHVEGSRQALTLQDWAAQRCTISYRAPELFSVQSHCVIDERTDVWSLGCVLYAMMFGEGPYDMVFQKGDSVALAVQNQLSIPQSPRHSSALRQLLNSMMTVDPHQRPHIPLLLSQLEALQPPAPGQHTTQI
Sequence of UniProt Q9UK32 (whole entry, looked up): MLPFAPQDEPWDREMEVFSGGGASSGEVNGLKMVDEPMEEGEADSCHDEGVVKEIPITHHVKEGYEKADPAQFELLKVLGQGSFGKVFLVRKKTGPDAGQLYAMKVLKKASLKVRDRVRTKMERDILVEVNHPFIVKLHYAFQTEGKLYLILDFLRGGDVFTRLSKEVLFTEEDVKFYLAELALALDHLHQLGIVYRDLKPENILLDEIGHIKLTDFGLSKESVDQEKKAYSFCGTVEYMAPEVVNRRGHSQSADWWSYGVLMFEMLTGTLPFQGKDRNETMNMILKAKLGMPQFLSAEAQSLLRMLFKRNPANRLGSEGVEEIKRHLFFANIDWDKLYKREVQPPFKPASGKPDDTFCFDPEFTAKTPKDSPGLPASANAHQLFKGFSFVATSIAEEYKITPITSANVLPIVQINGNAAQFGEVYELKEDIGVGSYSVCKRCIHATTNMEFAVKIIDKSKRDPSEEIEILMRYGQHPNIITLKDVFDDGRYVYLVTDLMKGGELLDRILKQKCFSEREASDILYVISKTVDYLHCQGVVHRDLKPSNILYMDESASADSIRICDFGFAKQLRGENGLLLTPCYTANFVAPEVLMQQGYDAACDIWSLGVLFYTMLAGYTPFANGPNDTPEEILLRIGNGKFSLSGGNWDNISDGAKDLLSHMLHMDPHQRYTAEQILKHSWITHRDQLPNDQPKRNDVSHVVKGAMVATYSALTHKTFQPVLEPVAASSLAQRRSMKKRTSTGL
Sequence of UniProt P30530 (whole entry, looked up): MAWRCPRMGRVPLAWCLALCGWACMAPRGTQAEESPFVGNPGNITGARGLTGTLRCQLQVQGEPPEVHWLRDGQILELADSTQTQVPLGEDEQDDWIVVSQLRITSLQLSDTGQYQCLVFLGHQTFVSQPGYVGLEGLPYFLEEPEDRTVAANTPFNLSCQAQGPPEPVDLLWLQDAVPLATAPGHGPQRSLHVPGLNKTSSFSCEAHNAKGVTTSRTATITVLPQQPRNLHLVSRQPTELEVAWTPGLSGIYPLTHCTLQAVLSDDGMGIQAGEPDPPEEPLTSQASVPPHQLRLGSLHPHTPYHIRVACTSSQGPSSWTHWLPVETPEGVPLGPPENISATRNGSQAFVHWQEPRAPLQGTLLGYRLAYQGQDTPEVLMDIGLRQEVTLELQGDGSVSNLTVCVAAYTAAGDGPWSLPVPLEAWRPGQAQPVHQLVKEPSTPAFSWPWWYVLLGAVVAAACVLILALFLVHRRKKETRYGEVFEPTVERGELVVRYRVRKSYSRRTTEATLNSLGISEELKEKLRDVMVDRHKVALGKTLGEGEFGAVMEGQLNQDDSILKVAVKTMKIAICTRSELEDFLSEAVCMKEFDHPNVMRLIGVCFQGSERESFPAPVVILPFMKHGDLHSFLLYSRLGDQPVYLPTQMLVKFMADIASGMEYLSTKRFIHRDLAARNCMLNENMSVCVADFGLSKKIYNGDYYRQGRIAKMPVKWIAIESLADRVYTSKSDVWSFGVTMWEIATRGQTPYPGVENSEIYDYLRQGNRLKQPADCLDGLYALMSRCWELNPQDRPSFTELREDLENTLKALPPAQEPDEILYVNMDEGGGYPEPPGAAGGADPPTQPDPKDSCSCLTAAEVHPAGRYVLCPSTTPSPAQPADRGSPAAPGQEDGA
Sequence of UniProt P06493 (whole entry, looked up): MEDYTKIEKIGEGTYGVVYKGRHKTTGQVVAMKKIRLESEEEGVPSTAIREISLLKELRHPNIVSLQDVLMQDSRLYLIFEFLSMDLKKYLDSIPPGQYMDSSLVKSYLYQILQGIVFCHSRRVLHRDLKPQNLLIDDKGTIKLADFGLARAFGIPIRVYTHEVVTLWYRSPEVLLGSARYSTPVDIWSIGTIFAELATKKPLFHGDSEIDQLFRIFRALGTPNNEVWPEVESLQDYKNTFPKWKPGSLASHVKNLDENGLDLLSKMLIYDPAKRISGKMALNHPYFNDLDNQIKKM

Set 1
Structure (SMILES): CSc1cccnc1N1CCN(Cc2nc3ccccc3[nH]2)CC1
Concentration: 1 µM
Measurement: remaining binding
Serine/threonine-protein kinase PLK1 (PLK1, Homo sapiens, UniProt P53350); cell-free assay, competition with immobilised ligand: 78%
Receptor-type tyrosine-protein kinase FLT3 (FLT3, Homo sapiens, UniProt P36888, D835V/ITD); cell-free assay, competition with immobilised ligand: 73%
Serine/threonine-protein kinase STK11 (STK11, Homo sapiens, UniProt Q15831); cell-free assay, competition with immobilised ligand: 100%
LIM domain kinase 2 (LIMK2, Homo sapiens, UniProt P53671); cell-free assay, competition with immobilised ligand: 100%
Ephrin type-A receptor 8 (EPHA8, Homo sapiens, UniProt P29322); cell-free assay, competition with immobilised ligand: 95%
Receptor-type tyrosine-protein kinase FLT3 (FLT3, Homo sapiens, UniProt P36888, D835H); cell-free assay, competition with immobilised ligand: 65%
Casein kinase I isoform alpha-like (CSNK1A1L, Homo sapiens, UniProt Q8N752); cell-free assay, competition with immobilised ligand: 100%
Cyclin-dependent kinase-like 1 (CDKL1, Homo sapiens, UniProt Q00532); binding, competition with immobilised ligand: 100%
Cyclin-dependent kinase 19 (CDK19, Homo sapiens, UniProt Q9BWU1); competition binding: 96%
Serine/threonine-protein kinase SBK1 (SBK1, Homo sapiens, UniProt Q52WX2); cell-free assay, competition with immobilised ligand: 99%
Phosphatidylinositol 4,5-bisphosphate 3-kinase catalytic subunit alpha isoform (PIK3CA, Homo sapiens, UniProt P42336, E542K); cell-free assay, competition with immobilised ligand: 82%
Ribosomal protein S6 kinase alpha-6, C-terminal kinase domain (RPS6KA6, Homo sapiens, UniProt Q9UK32); cell-free assay, competition with immobilised ligand: 94%
Mitogen-activated protein kinase kinase kinase 15 (MAP3K15, Homo sapiens, UniProt Q6ZN16); cell-free assay, competition with immobilised ligand: 67%
Serine/threonine-protein kinase Nek5 (NEK5, Homo sapiens, UniProt Q6P3R8); cell-free assay, competition with immobilised ligand: 100%
Serine/threonine-protein kinase SIK2 (SIK2, Homo sapiens, UniProt Q9H0K1); cell-free assay, competition with immobilised ligand: 100%
SRSF protein kinase 1 (SRPK1, Homo sapiens, UniProt Q96SB4); cell-free assay, competition with immobilised ligand: 100%
Non-receptor tyrosine-protein kinase TYK2, JH1 (TYK2, Homo sapiens, UniProt P29597); cell-free assay, competition with immobilised ligand: 100%
Tyrosine-protein kinase HCK (HCK, Homo sapiens, UniProt P08631); cell-free assay, competition with immobilised ligand: 82%
Aurora kinase C (AURKC, Homo sapiens, UniProt Q9UQB9); cell-free assay, competition with immobilised ligand: 100%
Serine/threonine-protein kinase/endoribonuclease IRE1 (ERN1, Homo sapiens, UniProt O75460); cell-free assay, competition with immobilised ligand: 70%
Casein kinase I isoform delta (CSNK1D, Homo sapiens, UniProt P48730); cell-free assay, competition with immobilised ligand: 100%
Ribosomal protein S6 kinase alpha-2, N-terminal kinase domain (RPS6KA2, Homo sapiens, UniProt Q15349); cell-free assay, competition with immobilised ligand: 100%
Epidermal growth factor receptor (EGFR, Homo sapiens, UniProt P00533, del746-750); cell-free assay, competition with immobilised ligand: 100%
Serine/threonine-protein kinase 16 (STK16, Homo sapiens, UniProt O75716); cell-free assay, competition with immobilised ligand: 100%
Cyclin-dependent kinase 13 (CDK13, Homo sapiens, UniProt Q14004); cell-free assay, competition with immobilised ligand: 85%

Set 2
Host: human
Matrix: microsomes or S9
Concentration: 2 µM
Time: 0.5 h
Measurement: remaining compound
CN(Cc1n[nH]c2c1CCCCC2)C(=O)CCC1(Cc2ccc(-c3ccccc3)cc2)CCC(=O)N1 (stereo not shown): 0.588%
OC(CN1CCCCCC1)CN(c1ccccc1)c1ccccc1 (stereo not shown): 8.15%
O=C(Nc1ccc(Cc2nnn[nH]2)cc1)C1CCN(c2ccc(Cl)cn2)CC1: 93.1%
COC(=O)c1cc(Br)c(=O)n(-c2nccs2)c1: 0.298%
Cc1cc(Br)ccc1OCCOCCN1CC(C)OC(C)C1 (stereo not shown): 4.07%
CC(C)(C)OC(=O)N[C@@H](CC(=O)N1CCN(S(C)(=O)=O)CCN1)Cc1cc(F)c(F)cc1F: 32.7%
CCCC1(c2ccccc2)OC(=O)C(C)=C1c1ccccc1 (stereo not shown): 91.4%
CC(=O)c1ccc(N2CCC(OC(=O)CCc3nnc[nH]3)CC2)cc1: 61.8%
COc1nccc(CNc2nn(C)cc2Cl)c1F: > 100%
CC1=CC[C@H]2C(C)(C)[C@H](O)CC[C@]2(C)[C@H]1COc1ccc2ccc(=O)oc2c1: 46.1%
CCC[C@@H]1CN(C(=O)c2ccc3c(=O)n(C)cnc3c2)C[C@H]1NC(C)=O: 92.2%

Set 3
Target: DNA polymerase theta, ATPase domain (POLQ, Homo sapiens, UniProt O75417)
Sequence of UniProt O75417 (whole entry, unmodified, looked up): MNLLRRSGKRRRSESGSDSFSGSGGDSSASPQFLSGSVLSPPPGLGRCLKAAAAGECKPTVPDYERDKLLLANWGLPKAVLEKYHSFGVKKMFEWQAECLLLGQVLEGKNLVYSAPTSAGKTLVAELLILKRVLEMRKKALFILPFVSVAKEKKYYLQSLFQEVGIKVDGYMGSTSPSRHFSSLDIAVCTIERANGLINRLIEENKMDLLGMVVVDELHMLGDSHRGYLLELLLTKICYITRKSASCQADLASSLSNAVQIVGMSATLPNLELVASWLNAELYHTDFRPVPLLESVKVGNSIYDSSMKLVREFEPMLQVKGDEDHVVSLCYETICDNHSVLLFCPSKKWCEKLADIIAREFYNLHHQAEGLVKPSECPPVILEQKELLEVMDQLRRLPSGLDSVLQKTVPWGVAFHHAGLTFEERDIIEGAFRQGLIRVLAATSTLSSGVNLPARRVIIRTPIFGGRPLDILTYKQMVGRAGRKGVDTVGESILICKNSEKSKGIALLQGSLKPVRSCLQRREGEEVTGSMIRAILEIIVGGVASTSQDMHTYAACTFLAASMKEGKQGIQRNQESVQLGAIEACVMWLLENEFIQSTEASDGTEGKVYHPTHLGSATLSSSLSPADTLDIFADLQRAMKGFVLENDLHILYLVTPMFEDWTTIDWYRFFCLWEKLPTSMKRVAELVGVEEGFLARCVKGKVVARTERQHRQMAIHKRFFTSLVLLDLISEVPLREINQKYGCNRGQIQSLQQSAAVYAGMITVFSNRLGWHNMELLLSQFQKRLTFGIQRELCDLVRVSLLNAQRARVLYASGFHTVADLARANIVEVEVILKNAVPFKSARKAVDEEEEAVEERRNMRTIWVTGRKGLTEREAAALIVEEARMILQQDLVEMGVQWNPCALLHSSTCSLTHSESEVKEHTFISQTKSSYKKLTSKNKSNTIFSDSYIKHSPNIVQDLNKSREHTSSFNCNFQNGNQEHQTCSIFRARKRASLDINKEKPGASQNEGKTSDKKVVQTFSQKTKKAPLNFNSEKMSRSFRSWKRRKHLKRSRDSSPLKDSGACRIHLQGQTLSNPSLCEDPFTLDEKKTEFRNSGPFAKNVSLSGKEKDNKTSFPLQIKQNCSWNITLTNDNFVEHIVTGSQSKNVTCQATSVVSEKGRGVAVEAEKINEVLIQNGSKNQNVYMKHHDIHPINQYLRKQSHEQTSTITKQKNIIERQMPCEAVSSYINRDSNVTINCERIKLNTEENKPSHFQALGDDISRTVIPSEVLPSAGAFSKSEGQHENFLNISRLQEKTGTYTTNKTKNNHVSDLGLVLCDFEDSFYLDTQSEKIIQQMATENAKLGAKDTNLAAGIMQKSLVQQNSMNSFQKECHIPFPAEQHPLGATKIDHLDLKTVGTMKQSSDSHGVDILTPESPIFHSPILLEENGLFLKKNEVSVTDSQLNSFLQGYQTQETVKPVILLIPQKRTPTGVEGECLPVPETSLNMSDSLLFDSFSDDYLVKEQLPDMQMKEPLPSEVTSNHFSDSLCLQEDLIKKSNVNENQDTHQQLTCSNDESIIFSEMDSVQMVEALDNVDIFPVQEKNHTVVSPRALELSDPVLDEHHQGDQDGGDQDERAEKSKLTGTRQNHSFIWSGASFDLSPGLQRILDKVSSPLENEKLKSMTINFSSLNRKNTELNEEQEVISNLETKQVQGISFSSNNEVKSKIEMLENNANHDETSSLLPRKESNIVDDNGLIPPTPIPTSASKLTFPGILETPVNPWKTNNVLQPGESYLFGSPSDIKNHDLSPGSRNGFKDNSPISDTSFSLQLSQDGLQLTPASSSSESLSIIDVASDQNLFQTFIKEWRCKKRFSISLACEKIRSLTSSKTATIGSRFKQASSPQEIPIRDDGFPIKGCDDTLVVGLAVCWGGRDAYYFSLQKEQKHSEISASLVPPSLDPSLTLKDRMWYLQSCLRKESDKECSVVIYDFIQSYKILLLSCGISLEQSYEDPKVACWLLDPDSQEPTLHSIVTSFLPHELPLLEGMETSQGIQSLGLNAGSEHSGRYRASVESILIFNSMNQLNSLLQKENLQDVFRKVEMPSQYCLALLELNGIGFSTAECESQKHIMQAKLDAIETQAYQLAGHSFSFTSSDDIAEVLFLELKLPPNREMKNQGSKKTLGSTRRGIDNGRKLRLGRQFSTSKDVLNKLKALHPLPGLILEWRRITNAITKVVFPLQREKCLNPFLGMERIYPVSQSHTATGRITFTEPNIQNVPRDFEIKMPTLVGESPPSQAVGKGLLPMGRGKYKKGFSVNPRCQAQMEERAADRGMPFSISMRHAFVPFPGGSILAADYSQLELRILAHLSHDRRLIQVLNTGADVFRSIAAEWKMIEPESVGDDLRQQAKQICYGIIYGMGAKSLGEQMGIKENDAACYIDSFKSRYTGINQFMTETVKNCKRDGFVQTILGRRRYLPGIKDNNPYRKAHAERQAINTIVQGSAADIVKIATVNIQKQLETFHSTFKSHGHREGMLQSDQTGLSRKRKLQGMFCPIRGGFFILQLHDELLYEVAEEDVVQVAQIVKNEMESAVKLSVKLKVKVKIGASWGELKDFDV
Effect on: enzyme activity
Action: inhibitor
Concentration: 77 µM
Baseline: untreated
Measurement: remaining activity
Brc1c(NC2=NCCN2)ccc2nccnc12: 98.4%
O=C1NCN(c2ccccc2)C12CCN(CCCC(c1ccc(F)cc1)c1ccc(F)cc1)CC2: 103%
COC(=O)C[C@H](NC(=O)[C@H](C)NC(=O)[C@@H](NC(=O)OCc1ccccc1)C(C)C)C(=O)CF: 104%
CC[N+](CC)(CC)CCC(O)(c1ccccc1)C1CCCCC1 (stereo not shown): 96.5%
CCCN(CCC)CCc1cccc2c1CC(=O)N2: 96.3%
Brc1ccc([C@H]2CN3CCSC3=N2)cc1: 100% and 90.5%
Cn1c(=O)c2nc(-c3ccccc3)[nH]c2n(C)c1=O: 105%
CC1CN(S(=O)(=O)c2cccc3cnccc23)CCN1 (stereo not shown): 96.7%
CCOC(=O)C1=C(C)NC(C)=C(C(=O)OCC)C1c1ccccc1/C=C/C(=O)OC(C)(C)C: 88.8%
N[C@@H](CC(=O)N1CCn2c(nnc2C(F)(F)F)C1)Cc1cc(F)c(F)cc1F: 101%
CCCCC[C@H](O)/C=C/[C@H]1[C@H](O)CC(=O)[C@@H]1CCCCCCC(=O)O: 101% and 102%
Cc1c(C)c2c(c(C)c1O)CCC(C)(C(=O)O)O2 (stereo not shown): 100%

Set 4
SMILES: O=C1Nc2ccc(Br)cc2/C1=C/c1cc2c([nH]1)CCCC2
Effect on: enzyme activity
Action: inhibitor
Concentration: 0.5 µM
Baseline: control
Measurement: remaining activity
Testis-specific serine/threonine-protein kinase 2 (TSSK2, Homo sapiens, UniProt Q96PF2): 89.8%
Tyrosine-protein kinase Srms (SRMS, Homo sapiens, UniProt Q9H3Y6): 104%
Tyrosine-protein kinase Blk (BLK, Homo sapiens, UniProt P51451): 74.4%
Calcium/calmodulin-dependent protein kinase type II subunit beta (CAMK2B, Homo sapiens, UniProt Q13554): 85.8%
Tyrosine-protein kinase receptor UFO (AXL, Homo sapiens, UniProt P30530): 90%
cAMP-dependent protein kinase catalytic subunit gamma (PRKACG, Homo sapiens, UniProt P22612): 98.1%
3-phosphoinositide-dependent protein kinase 1 (PDPK1, Homo sapiens, UniProt O15530): 95.3%
MAP kinase-activated protein kinase 3 (MAPKAPK3, Homo sapiens, UniProt Q16644): 95.1%
Mitogen-activated protein kinase kinase kinase kinase 4 (MAP4K4, Homo sapiens, UniProt O95819): 6.84%
Dual specificity tyrosine-phosphorylation-regulated kinase 3 (DYRK3, Homo sapiens, UniProt O43781): 94%
Serine/threonine-protein kinase 17A (STK17A, Homo sapiens, UniProt Q9UEE5): 72.9%
Ribosomal protein S6 kinase alpha-6 (RPS6KA6, Homo sapiens, UniProt Q9UK32): 78.6%
Ephrin type-B receptor 4 (EPHB4, Homo sapiens, UniProt P54760): 88.6%
Tyrosine-protein kinase ABL1 (ABL1, Homo sapiens, UniProt P00519): 91.8%
Homeodomain-interacting protein kinase 4 (HIPK4, Homo sapiens, UniProt Q8NE63): 104%
Ribosomal protein S6 kinase alpha-5 (RPS6KA5, Homo sapiens, UniProt O75582): 90.3%
Homeodomain-interacting protein kinase 2 (HIPK2, Homo sapiens, UniProt Q9H2X6): 91%
Cyclin-dependent kinase 6, with cyclin D3 (CDK6, Homo sapiens, UniProt Q00534): 85.8%
Ephrin type-A receptor 4 (EPHA4, Homo sapiens, UniProt P54764): 94.8%
Phosphorylase b kinase gamma catalytic chain, skeletal muscle/heart isoform (PHKG1, Homo sapiens, UniProt Q16816): 60.2%
Ephrin type-B receptor 1 (EPHB1, Homo sapiens, UniProt P54762): 85.5%
Serine/threonine-protein kinase 16 (STK16, Homo sapiens, UniProt O75716): 94.3%
Cyclin-dependent kinase 4, with cyclin D3 (CDK4, Homo sapiens, UniProt P11802): 99.8%
Cyclin-dependent kinase 1, with cyclin B (CDK1, Homo sapiens, UniProt P06493): 98.5%
Serine/threonine-protein kinase WNK3 (WNK3, Homo sapiens, UniProt Q9BYP7): 93.8%
